Measurements gathered from unrelated publications.
Every numbered part comes from another study and shows a few of its results, in no order. Several values in a cell are separate wells, animals, samples, runs or records.
Sequence of UniProt Q9UIK4 (whole entry, looked up): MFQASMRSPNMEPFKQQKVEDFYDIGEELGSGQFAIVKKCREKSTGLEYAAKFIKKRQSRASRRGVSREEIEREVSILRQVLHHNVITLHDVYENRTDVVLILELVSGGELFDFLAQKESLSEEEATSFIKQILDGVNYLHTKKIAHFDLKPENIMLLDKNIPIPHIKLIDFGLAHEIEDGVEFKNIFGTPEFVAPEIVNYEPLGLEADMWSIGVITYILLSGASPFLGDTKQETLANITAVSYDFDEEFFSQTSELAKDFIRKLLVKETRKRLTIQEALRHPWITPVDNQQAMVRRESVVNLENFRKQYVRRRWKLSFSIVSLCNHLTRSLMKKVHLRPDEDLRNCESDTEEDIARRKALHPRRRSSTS
Sequence of UniProt Q13976 (whole entry, looked up): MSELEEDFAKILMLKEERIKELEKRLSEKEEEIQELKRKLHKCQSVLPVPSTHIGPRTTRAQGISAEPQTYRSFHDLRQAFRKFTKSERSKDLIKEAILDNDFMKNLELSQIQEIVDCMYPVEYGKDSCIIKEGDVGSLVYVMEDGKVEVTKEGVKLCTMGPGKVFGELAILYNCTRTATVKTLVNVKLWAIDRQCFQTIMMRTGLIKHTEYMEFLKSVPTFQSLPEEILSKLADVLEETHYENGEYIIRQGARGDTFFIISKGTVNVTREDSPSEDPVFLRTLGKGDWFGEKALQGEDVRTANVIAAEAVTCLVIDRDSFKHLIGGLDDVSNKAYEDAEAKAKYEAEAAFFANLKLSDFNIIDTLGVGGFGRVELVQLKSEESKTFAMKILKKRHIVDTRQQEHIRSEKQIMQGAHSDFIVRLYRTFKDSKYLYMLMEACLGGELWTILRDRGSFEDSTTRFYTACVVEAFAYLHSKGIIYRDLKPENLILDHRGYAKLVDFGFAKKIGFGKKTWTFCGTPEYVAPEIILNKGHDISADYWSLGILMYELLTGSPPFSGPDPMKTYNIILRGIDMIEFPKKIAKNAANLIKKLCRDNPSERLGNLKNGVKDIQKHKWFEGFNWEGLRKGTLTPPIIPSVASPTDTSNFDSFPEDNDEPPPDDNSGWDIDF
Sequence of UniProt Q9BVS4 (whole entry, looked up): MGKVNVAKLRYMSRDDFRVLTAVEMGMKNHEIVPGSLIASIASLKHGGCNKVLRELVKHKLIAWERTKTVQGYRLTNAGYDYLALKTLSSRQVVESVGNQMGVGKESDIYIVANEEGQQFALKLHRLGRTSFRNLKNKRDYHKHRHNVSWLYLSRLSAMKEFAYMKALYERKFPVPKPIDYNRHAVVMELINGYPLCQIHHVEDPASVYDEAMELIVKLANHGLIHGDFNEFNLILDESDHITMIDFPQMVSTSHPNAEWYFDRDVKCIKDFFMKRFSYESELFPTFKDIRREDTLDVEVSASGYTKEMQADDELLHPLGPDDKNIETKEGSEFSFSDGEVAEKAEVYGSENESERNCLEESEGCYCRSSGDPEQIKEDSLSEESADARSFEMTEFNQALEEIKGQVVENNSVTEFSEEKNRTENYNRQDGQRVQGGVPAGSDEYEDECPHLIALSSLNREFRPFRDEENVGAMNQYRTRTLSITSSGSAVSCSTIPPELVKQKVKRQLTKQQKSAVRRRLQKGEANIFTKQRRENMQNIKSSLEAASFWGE
Sequence of UniProt Q15569 (whole entry, looked up): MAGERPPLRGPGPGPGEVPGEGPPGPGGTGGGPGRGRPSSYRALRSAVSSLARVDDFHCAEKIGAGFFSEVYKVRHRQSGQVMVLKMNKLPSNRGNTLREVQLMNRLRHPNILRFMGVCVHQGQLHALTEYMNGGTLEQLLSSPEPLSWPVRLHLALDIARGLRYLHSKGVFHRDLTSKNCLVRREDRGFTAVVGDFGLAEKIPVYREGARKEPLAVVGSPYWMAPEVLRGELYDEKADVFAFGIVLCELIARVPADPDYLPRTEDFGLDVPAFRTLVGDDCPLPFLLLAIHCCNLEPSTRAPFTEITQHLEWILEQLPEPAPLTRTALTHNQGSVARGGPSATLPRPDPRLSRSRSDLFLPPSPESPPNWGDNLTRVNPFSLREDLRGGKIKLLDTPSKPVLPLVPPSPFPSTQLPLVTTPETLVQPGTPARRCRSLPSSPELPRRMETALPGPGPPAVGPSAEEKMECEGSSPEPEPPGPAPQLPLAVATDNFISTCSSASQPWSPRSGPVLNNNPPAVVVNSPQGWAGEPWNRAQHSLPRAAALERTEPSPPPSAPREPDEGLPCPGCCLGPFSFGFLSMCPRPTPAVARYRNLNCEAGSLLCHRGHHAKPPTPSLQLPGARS
Sequence of UniProt Q00535 (whole entry, looked up): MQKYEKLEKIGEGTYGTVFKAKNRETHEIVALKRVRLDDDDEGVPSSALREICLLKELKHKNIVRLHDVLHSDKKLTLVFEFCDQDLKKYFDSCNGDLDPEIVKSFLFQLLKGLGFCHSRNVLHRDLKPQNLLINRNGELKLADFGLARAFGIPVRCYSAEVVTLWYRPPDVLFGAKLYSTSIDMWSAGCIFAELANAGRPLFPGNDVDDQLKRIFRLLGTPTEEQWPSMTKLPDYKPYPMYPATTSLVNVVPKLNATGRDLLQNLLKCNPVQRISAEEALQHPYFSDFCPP

Block 1 — read-out: enzyme activity; mode: inhibitor; tested at: 0.5 µM; baseline: control; quantity: remaining activity
SMILES: CC(C)c1nn(-c2c(Cl)cccc2Cl)c2nc(Cc3ccc(OCCO)cc3)[nH]c(=O)c12
target = CHEK2 (Homo sapiens, UniProt O96017); value = 98.8%
target = STK39 (Homo sapiens, UniProt Q9UEW8); value = 99.9%
target = CAMK2D (Homo sapiens, UniProt Q13557); value = 85.7%
target = TGFBR1 (Homo sapiens, UniProt P36897); value = 98%
target = IKBKB (Homo sapiens, UniProt O14920); value = 103%
target = STK10 (Homo sapiens, UniProt O94804); value = 96.6%
target = PRKCA (Homo sapiens, UniProt P17252); value = 89.9%
target = GRK3 (Homo sapiens, UniProt P35626); value = 87.9%
target = NEK2 (Homo sapiens, UniProt P51955); value = 97.7%
target = Protein kinase C beta type, isoform beta-I (PRKCB, Homo sapiens, UniProt P05771); value = 101%
target = Cyclin-dependent kinase 5, with p25 (CDK5, Homo sapiens, UniProt Q00535); value = 2.54%
target = cGMP-dependent protein kinase 1, isoform beta (PRKG1, Homo sapiens, UniProt Q13976); value = 99%
target = MAP3K3 (Homo sapiens, UniProt Q99759); value = 110%
target = Tyrosine-protein kinase Lyn, isoform B (LYN, Homo sapiens, UniProt P07948); value = 92.7%
target = TGFBR2 (Homo sapiens, UniProt P37173); value = 74.3%
target = PRKACA (Homo sapiens, UniProt P17612); value = 99.8%
target = DAPK2 (Homo sapiens, UniProt Q9UIK4); value = 88.3%
target = STK11 (Homo sapiens, UniProt Q15831); value = 47.7%
target = DAPK1 (Homo sapiens, UniProt P53355); value = 99.5%
target = OXSR1 (Homo sapiens, UniProt O95747); value = 93.8%
target = CAMKK2 (Homo sapiens, UniProt Q96RR4); value = 90.9%
target = IKBKE (Homo sapiens, UniProt Q14164); value = 95.6%
target = MAPK9 (Homo sapiens, UniProt P45984); value = 96.5%
target = Cyclin-dependent kinase 4, with cyclin D1 (CDK4, Homo sapiens, UniProt P11802); value = 86.8%

Block 2 — read-out: enzyme activity; mode: inhibitor; tested at: 77 µM; baseline: untreated; quantity: remaining activity
Target: DNA polymerase theta, ATPase domain (POLQ, Homo sapiens, UniProt O75417)
Sequence of UniProt O75417 (whole entry, unmodified, looked up): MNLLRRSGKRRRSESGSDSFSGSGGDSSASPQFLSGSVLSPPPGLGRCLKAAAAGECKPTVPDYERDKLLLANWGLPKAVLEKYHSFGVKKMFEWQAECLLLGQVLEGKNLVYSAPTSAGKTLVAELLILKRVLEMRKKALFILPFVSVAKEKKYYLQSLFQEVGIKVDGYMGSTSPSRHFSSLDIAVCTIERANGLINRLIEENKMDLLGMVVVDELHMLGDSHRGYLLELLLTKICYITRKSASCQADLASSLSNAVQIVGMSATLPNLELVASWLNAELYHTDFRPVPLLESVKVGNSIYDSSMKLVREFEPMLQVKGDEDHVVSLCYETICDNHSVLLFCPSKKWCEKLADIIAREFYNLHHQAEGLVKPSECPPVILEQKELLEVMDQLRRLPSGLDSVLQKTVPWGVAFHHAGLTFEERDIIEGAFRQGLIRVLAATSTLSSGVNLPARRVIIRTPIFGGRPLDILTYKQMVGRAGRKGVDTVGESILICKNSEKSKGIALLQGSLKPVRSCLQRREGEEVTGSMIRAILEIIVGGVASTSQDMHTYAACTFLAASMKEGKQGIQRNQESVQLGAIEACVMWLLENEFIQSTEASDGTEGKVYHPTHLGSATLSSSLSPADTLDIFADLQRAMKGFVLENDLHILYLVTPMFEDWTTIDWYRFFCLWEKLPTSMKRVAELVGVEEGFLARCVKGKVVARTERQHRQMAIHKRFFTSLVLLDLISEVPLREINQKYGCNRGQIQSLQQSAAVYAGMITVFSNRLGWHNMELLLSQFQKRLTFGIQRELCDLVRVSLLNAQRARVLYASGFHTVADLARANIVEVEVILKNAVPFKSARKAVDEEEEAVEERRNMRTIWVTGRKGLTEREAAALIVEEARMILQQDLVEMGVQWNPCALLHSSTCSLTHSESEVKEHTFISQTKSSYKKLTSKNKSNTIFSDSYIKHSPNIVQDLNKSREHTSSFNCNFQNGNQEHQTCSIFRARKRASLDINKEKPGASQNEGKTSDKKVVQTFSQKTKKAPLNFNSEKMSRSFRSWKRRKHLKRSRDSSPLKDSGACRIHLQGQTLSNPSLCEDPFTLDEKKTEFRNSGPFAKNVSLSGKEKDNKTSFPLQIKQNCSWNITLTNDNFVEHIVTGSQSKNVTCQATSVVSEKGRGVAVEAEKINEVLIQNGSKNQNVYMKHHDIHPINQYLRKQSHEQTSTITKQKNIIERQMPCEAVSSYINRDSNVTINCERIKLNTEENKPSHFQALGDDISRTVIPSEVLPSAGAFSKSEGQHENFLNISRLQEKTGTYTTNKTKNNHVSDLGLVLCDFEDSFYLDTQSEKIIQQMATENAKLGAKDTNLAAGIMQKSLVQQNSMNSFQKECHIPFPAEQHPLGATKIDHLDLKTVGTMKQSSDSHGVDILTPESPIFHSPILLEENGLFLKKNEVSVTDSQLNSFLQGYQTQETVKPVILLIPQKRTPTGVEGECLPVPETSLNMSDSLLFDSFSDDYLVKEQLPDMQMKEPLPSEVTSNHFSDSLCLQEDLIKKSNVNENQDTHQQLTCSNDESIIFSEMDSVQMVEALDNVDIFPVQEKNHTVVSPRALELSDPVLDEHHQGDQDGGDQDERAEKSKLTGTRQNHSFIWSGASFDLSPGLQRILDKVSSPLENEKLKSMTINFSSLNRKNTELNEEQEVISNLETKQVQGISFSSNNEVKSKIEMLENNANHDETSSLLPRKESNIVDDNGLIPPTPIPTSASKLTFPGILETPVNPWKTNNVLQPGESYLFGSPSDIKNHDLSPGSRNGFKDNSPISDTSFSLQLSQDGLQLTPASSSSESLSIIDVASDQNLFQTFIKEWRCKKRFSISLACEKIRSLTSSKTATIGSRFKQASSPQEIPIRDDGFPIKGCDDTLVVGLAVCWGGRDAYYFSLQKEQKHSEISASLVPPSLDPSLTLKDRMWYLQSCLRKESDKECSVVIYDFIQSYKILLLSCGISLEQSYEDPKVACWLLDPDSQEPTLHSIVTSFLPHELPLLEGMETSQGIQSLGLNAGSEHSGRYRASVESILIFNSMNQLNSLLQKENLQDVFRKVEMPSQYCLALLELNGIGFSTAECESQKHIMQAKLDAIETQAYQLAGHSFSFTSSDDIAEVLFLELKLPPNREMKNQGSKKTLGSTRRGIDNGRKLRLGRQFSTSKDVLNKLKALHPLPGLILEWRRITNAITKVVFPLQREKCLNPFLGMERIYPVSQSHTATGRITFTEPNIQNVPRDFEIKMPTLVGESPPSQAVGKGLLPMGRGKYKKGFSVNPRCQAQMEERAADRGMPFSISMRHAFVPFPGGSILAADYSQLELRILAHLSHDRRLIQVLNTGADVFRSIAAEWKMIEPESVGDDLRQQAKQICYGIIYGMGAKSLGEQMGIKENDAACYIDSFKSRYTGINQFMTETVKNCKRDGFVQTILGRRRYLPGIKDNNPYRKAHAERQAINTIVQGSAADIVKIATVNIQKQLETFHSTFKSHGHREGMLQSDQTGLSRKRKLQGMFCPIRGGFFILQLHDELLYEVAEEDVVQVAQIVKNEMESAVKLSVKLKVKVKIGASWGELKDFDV
SMILES = CC1=C(/C=C/C(C)=C/C=C/C(C)=C/C(=O)O)C(C)(C)CCC1; value = 92% and 108%
SMILES = Nc1ccn([C@@H]2CS[C@H](CO)O2)c(=O)n1; value = 100%
SMILES = CN1C[C@@H]2c3ccccc3Oc3ccc(Cl)cc3[C@H]2C1 (racemic); value = 101%
SMILES = CCCOc1ccc(/C=C2/SC(=O)NC2=O)cc1; value = 93.5%
SMILES = CCCCCCCCCCCCCCCCO; value = 99.6%
SMILES = CN(CCOc1ccc(NS(C)(=O)=O)cc1)CCc1ccc(NS(C)(=O)=O)cc1; value = 77.7% and 99.6%
SMILES = NCC(O)C1CCCCCCC1 (stereo not shown); value = 101%
SMILES = O=C1c2c(O)cc(O)cc2O[C@H](c2cc(O)c(O)c(O)c2)[C@H]1O; value = 90.8%
SMILES = Cn1c(=O)c2c(ncn2CC2OCCO2)n(C)c1=O; value = 96.2%
SMILES = CC(=O)c1ccc2c(c1)N(CCCN1CCC(CCO)CC1)c1ccccc1S2; value = 103%
SMILES = COc1cc2c(CCNC(C)=O)c[nH]c2cc1O; value = 103%
SMILES = CN(C)C(=O)Nc1cccc(-c2ccc(N(C)C)cc2)c1; value = 79.3%
SMILES = O=S(=O)(O)c1cc(O)ccc1O; value = 103% and 98.7%
SMILES = COc1ccc([C@@H]2CC(=O)c3c(O)cc(O[C@@H]4O[C@H](CO)[C@@H](O)[C@H](O)[C@H]4O[C@@H]4O[C@@H](C)[C@H](O)[C@@H](O)[C@H]4O)cc3O2)cc1O; value = 101%
SMILES = C[C@H](O)C(=O)Nc1c(I)c(C(=O)NC(CO)CO)c(I)c(C(=O)NC(CO)CO)c1I; value = 80.4%

Block 3 — read-out: binding; tested at: 1 µM; quantity: remaining binding
SMILES: Cc1ccc(NC(=O)c2ccnc(C(F)(F)F)c2)cc1-c1cc(OCCO)nc(N2CCOCC2)c1
target = MAP3K19 (Homo sapiens, UniProt Q56UN5); method = competition with immobilised ligand; value = 81%
target = MAP3K14 (Homo sapiens, UniProt Q99558); value = 100%
target = MAP3K6 (Homo sapiens, UniProt O95382); value = 87%
target = MET (Homo sapiens, UniProt P08581, M1250T); value = 100%
target = Tyrosine-protein kinase ABL1, non-phosphorylated (ABL1, Homo sapiens, UniProt P00519); method = competition with immobilised ligand; value = 58%
target = EPHA6 (Homo sapiens, UniProt Q9UF33); method = competition with immobilised ligand; value = 91%
target = ERBB3 (Homo sapiens, UniProt P21860); method = competition with immobilised ligand; value = 95%
target = CLK4 (Homo sapiens, UniProt Q9HAZ1); value = 100%
target = EPHA5 (Homo sapiens, UniProt P54756); method = competition with immobilised ligand; value = 92%
target = PIM3 (Homo sapiens, UniProt Q86V86); value = 85%
target = CHUK (Homo sapiens, UniProt O15111); value = 50%
target = MYLK3 (Homo sapiens, UniProt Q32MK0); method = competition with immobilised ligand; value = 100%
target = STK17B (Homo sapiens, UniProt O94768); value = 100%

Block 4 — read-out: cell-free assay; method: competition with immobilised ligand; tested at: 0.1 µM; quantity: remaining binding
Structure (SMILES): Cc1cc(C)c(-n2ccn3nc(-c4cccnc4)cc23)cc1NC(=O)c1cc(C#N)cc(S(F)(F)(F)(F)F)c1
target = PAK3 (Homo sapiens, UniProt O75914); value = 26.1%
target = EGFR (Homo sapiens, UniProt P00533, G719C); value = 91.6%
target = ABL2 (Homo sapiens, UniProt P42684); value = 67.8%
target = TESK1 (Homo sapiens, UniProt Q15569); value = 85.1%
target = TTK (Homo sapiens, UniProt P33981); value = 72%
target = RPS6KB1 (Homo sapiens, UniProt P23443); value = 93%
target = DAPK2 (Homo sapiens, UniProt Q9UIK4); value = 75.8%
target = NEK10 (Homo sapiens, UniProt Q6ZWH5); value = 100%
target = LIM domain kinase 1 (LIMK1, Homo sapiens, UniProt P53667); value = 83.6%
target = RIPK1 (Homo sapiens, UniProt Q13546); value = 91.5%
target = CSF1R (Homo sapiens, UniProt P07333); value = 85.5%
target = Tyrosine-protein kinase ABL1, phosphorylated (ABL1, Homo sapiens, UniProt P00519); value = 74.6%
target = PIKFYVE (Homo sapiens, UniProt Q9Y2I7); value = 74.9%
target = RIOK3 (Homo sapiens, UniProt O14730); value = 100%
target = STK39 (Homo sapiens, UniProt Q9UEW8); value = 64.6%
target = PKMYT1 (Homo sapiens, UniProt Q99640); value = 100%
target = NEK7 (Homo sapiens, UniProt Q8TDX7); value = 75.5%
target = MAST1 (Homo sapiens, UniProt Q9Y2H9); value = 100%
target = RET (Homo sapiens, UniProt P07949, M918T); value = 77.1%
target = LRRK2 (Homo sapiens, UniProt Q5S007); value = 83.5%
target = Tyrosine-protein kinase ABL1, non-phosphorylated (ABL1, Homo sapiens, UniProt P00519, Q252H); value = 31.4%
target = RIOK2 (Homo sapiens, UniProt Q9BVS4); value = 74.2%
target = EPHA7 (Homo sapiens, UniProt Q15375); value = 92%
target = PRKG1 (Homo sapiens, UniProt Q13976); value = 100%
